Measurements gathered from unrelated publications.
Every numbered part comes from another study and shows a few of its results, in no order. Changes are numbered by the printed parent chain.

Series 1
Molecule: PhoQ, residues 284 288 289 292 302 303 SCCLKL
Technique: Sort-seq
Refers to: YFP reporter
Sample: E. coli
Setting: PhoQ-PhoP variant library
Added: 10 µM Mg2+
Reference: high Mg2+ state
Reading: higher = stronger signaling
Quantity: fold induction
target = PhoP, residues 12 14 15 18 19 NYFRM (Escherichia coli, UniProt P23836); value = 6.78
target = PhoP, residues 12 14 15 18 19 QYFSL (Escherichia coli, UniProt P23836); value = 4.91
target = PhoP, residues 12 14 15 18 19 TQALL (Escherichia coli, UniProt P23836); value = 10.3

Series 2
Target: CCNB2, cyclin fold, Cln2 fusion (human)
Technique: yeast growth competition, sequencing
Sample: yeast
Setting: strong parent motif
Reference: not given
Reading: higher = stronger binding
Quantity: normalised enrichment score
Starting sequence: PKMYT1 docking peptide (human); SFEPRNLLSLFED
Substitution = SFEPRNLLSLFFD [E12F]; value = -0.0321
Substitution = SFEPRNCLSLFED [L7C]; value = -0.389
Substitution = SFEFRNLLSLFED [P4F]; value = -0.593
Substitution = SFEPRNLLSLPED [F11P]; value = -0.211
Substitution = SKEPRNLLSLFED [F2K]; value = -0.355
Substitution = SFEPANALSLFED [R5A L7A]; value = -0.952

Series 3
Target: Histone acetyltransferase KAT6A, winged helix 1, GST fusion (KAT6A, Homo sapiens, UniProt Q92794, residues 1-85)
Technique: protein binding microarray
Molecule type: double-stranded DNA, one strand shown
Sample: in vitro
Concentration: not given
Setting: 8-mer, flanks averaged, mean of 2 arrays, mostly near background
Reference: not given
Reading: higher = stronger binding
Quantity: E-score
Target sequence (chain): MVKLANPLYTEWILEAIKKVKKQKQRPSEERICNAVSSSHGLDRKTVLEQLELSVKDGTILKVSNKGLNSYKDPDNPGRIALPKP
Strand = AAAATCAC; value = -0.199
Strand = CGCCTGTC; value = 0.147
Strand = CCAGTCCC; value = -0.141
Strand = ACTCATTA; value = -0.0539
Strand = GGCAGAAA; value = 0.125
Strand = AAATTGTC; value = -0.122
Strand = AAGTTTGG; value = -0.069
Strand = CCCCGATA; value = 0.142
Strand = ACGATCCT; value = -0.207

Series 4
Target: RNA binding protein fox-1 homolog 2, RRM domain, GST-SBP tag (RBFOX2, Homo sapiens, UniProt O43251-10, residues 100-194)
Technique: RNA Bind-n-Seq
Molecule type: RNA
Sample: in vitro
Concentration: 365 nM
Setting: natural RNA segment, single round, ends assumed
Reference: no-protein control
Reading: higher = stronger binding
Quantity: RBNS enrichment (R)
Constant ends, left off below: GGGAGUUCUACAGUCCGACGAUC … UGGAAUUCUCGGGUGCCAA
Residues (chain): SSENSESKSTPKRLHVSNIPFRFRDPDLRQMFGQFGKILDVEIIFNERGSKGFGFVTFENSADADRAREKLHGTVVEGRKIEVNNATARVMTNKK
Strand = UGAAUAAAUAAAUGGUAUUUUUUUUAAAUGUCAGCUCUUCCAUAAUUCAGUCUAGAUAGGAGAUUAUUUAACUGAAGAUCUUGGUGAGUGUCAUUUUUUUUUCUUUUUUC; value = 0.786
Strand = UCUCAGCUACUCCAGGGCACCUGACUGCUCUGAGGAGAGGGAAGAAGGCCUGCUGGGGCUUUCCAUGGCCUUCUGCUGUUUCUCGCCAACACUACCCAGGACUCUUGCUA; value = 0.472
Strand = GGGUUACAGGUGAUCGCUGGUCUCCUGCCUCCACCCCCUGAGUGCUGGGGUUACAGGUGUGAUCACCUUGCUGGCUUGUGAGGUGCUGGGGACAACCCAGGGCUUCGUGC; value = 0.257
Strand = UUUAUUUUAAAGAGAAAGUGAUUCAGUGGGGAAAUUUAUAAAGCUAUAAAUAUUAUAUAUUUUAUUUUUCAUACAUGUUUGAAUUGCGGAUCCAUGGAUGUUCCAUCUGU; value = 0.896
Strand = CUCUUCUCACUGGAAGAGCAGAGGGAAACCUGGCCGUCGUGUAUUCUCCUUAUGUUUAAAUGCACAGGCUUAUGUUUAAAUGAACAGAUGUAAAACACAAGCCAGACAGA; value = 1.43
Strand = GUUUUAAACAAAACAACAGGAAGAACAGGACCAGGACUCUCCUAUACACAGUGUGUAGGAACAGCUGCCUGGGAAGCUGUGUGUCUGUCCCUCUGUUCACUACCCUCUUG; value = 0.845
Strand = UUUAGUUUCAUGCACAGUUGCAAUAUUUUCUUCAAAAAUAAAACUCUGUACAAACUUUGGGCCCGAUUCAUAAGAAAAAGAAGUUUGCUAUUAACACGGGAUUUUUUUAA; value = 0.508
Strand = UUUGCUUCCUGUAUAUUCUUAUACAUGUUUUUGACUCCAGAAAAAUGACACCUUUAGACUGUUUCAGAGCCAAUGAUGAUAUUUCCUUUAAAUAAUUAUUACAUUAUUCU; value = 0.638
Strand = CCCAGAGGGCCUGCCUGGUGCCAAGGUAUCCCAGCCUGGACAGGCAUGGACCUGUCUCCAGAGAGAGGAGCCUGAAGUUCGUGGGGCGGGACAGCGUCGGCCUGAUUUCC; value = 0.442
